Experimental data from different studies.
Every numbered part comes from another study and shows a few of its results, in no order. Values joined by “and” are separate records of one study, mostly repeats; a detail may differ.
Sequence of UniProt P17948 (whole entry, looked up): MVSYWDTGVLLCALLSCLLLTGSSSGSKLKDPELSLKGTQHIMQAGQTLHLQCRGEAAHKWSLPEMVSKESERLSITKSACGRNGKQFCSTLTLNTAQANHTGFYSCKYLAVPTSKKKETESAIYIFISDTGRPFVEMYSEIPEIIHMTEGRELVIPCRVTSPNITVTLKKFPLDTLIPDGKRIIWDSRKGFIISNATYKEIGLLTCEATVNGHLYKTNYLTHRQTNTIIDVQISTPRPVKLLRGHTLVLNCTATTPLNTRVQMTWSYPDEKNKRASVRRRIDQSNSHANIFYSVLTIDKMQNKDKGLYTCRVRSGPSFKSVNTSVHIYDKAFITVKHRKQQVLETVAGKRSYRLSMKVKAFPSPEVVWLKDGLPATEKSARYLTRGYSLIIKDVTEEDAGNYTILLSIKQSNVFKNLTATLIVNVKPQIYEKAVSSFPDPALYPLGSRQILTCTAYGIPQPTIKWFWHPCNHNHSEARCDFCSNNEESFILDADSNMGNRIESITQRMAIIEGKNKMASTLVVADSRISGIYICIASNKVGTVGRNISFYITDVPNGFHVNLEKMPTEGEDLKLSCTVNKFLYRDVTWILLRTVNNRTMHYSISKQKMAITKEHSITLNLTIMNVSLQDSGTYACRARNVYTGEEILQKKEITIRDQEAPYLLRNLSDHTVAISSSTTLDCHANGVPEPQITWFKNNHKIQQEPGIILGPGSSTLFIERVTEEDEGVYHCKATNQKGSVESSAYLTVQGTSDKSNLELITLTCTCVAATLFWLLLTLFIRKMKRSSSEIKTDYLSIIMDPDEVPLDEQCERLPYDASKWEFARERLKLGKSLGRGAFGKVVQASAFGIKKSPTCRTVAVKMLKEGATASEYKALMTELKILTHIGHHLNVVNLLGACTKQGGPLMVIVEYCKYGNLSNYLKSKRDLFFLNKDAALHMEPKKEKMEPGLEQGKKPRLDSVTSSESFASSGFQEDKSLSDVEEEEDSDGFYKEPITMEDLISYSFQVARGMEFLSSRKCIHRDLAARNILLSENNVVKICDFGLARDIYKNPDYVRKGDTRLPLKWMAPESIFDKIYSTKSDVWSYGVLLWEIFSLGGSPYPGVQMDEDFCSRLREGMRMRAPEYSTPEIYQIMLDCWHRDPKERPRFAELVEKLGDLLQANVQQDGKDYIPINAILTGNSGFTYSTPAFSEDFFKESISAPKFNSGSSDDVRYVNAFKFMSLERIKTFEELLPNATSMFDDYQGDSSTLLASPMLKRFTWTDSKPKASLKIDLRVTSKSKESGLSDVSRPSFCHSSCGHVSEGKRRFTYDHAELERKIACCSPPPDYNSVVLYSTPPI
Sequence of UniProt Q59H18 (whole entry, looked up): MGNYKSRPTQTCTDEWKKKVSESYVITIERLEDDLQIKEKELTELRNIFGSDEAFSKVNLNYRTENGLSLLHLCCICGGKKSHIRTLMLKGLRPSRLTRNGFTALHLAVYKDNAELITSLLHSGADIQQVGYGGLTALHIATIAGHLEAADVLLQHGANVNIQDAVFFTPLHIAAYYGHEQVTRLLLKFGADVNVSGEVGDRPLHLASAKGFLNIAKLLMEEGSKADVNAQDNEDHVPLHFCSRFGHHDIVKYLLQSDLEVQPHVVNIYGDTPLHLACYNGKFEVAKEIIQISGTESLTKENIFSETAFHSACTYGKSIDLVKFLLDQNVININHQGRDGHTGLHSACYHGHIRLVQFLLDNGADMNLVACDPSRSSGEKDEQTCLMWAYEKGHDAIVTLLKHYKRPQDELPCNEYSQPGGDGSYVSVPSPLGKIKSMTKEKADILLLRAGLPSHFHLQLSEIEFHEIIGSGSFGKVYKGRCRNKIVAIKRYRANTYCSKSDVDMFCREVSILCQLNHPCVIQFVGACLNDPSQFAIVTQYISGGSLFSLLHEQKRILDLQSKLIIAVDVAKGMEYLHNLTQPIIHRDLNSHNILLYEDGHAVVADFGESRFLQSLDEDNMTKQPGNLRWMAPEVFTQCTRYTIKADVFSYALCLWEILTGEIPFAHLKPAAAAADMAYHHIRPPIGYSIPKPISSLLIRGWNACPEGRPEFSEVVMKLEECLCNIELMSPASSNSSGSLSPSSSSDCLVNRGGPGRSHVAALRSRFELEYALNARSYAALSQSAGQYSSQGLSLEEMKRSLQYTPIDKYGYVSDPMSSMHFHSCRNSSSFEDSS
Sequence of UniProt Q8NG66 (whole entry, looked up): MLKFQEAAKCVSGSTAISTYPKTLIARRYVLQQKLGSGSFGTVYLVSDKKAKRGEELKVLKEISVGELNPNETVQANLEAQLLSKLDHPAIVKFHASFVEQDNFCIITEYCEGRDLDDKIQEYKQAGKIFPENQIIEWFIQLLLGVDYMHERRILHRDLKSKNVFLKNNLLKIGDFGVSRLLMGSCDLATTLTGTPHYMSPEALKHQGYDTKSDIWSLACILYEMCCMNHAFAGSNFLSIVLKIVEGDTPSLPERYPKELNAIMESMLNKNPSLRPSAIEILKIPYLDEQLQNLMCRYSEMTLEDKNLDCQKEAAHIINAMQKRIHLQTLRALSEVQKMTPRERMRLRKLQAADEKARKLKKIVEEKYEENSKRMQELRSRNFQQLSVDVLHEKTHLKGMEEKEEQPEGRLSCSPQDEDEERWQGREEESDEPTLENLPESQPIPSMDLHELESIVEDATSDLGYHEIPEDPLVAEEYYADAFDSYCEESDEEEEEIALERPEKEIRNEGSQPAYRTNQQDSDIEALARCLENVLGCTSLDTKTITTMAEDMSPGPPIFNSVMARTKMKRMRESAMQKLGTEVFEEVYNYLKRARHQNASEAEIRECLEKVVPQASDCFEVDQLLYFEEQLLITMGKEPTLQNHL
Sequence of UniProt O15075 (whole entry, looked up): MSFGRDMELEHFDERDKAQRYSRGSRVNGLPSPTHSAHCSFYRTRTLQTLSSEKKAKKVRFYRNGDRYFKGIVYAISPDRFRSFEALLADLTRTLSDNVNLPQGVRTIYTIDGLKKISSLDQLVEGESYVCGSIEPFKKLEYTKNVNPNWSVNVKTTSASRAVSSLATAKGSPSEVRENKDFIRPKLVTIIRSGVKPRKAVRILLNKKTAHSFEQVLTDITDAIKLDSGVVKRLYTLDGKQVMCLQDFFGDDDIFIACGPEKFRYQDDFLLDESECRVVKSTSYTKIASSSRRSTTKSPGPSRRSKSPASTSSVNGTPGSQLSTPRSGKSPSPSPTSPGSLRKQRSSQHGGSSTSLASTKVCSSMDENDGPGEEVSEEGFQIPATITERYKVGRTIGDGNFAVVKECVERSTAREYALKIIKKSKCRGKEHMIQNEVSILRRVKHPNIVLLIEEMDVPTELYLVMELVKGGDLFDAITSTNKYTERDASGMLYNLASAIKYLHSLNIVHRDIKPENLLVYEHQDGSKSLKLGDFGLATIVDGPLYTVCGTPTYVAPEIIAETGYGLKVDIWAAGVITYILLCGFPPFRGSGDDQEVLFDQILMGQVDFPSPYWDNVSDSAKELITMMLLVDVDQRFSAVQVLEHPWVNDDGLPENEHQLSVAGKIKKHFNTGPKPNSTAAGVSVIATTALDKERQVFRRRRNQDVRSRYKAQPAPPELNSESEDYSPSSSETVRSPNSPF

Study 1 — method: competition with immobilised ligand; concentration: 1 µM
Compound: Cc1c(C(=O)O)cc(-c2ccc(C3CCNCC3)cc2)c2ccc(-c3ccc(C(F)(F)F)cc3)cc12
target | effect on | remaining binding [%]
Serine/threonine-protein kinase Nek10 (NEK10, Homo sapiens, UniProt Q6ZWH5) | binding | 100
Serine/threonine-protein kinase Sgk2 (SGK2, Homo sapiens, UniProt Q9HBY8) | binding | 100
Serine/threonine-protein kinase DCLK2 (DCLK2, Homo sapiens, UniProt Q8N568) | binding | 100
Serine/threonine-protein kinase TNNI3K (TNNI3K, Homo sapiens, UniProt Q59H18) | cell-free assay | 100
Macrophage colony-stimulating factor 1 receptor, autoinhibited (CSF1R, Homo sapiens, UniProt P07333) | cell-free assay | 96
Serine/threonine-protein kinase STK11 (STK11, Homo sapiens, UniProt Q15831) | binding | 94
cAMP-dependent protein kinase catalytic subunit PRKX (PRKX, Homo sapiens, UniProt P51817) | cell-free assay | 100
Serine/threonine-protein kinase DCLK1 (DCLK1, Homo sapiens, UniProt O15075) | binding | 81
Mitogen-activated protein kinase 7 (MAPK7, Homo sapiens, UniProt Q13164) | binding | 100
Myosin-IIIb (MYO3B, Homo sapiens, UniProt Q8WXR4) | binding | 75
Mitogen-activated protein kinase 3 (MAPK3, Homo sapiens, UniProt P27361) | binding | 100
Receptor-type tyrosine-protein kinase FLT3 (FLT3, Homo sapiens, UniProt P36888, D835H) | binding | 90
Epidermal growth factor receptor (EGFR, Homo sapiens, UniProt P00533, del747-752/P753S) | cell-free assay | 100
Calcium/calmodulin-dependent protein kinase type II subunit beta (CAMK2B, Homo sapiens, UniProt Q13554) | cell-free assay | 100
Homeodomain-interacting protein kinase 4 (HIPK4, Homo sapiens, UniProt Q8NE63) | binding | 100
Cyclin-dependent kinase 18 (CDK18, Homo sapiens, UniProt Q07002) | binding | 100
Activin receptor type-2B (ACVR2B, Homo sapiens, UniProt Q13705) | binding | 88
Serine/threonine-protein kinase 24 (STK24, Homo sapiens, UniProt Q9Y6E0) | binding | 100
Ribosomal protein S6 kinase alpha-4, C-terminal kinase domain (RPS6KA4, Homo sapiens, UniProt O75676) | binding | 100
Tyrosine-protein kinase ABL1, non-phosphorylated (ABL1, Homo sapiens, UniProt P00519, Q252H) | binding | 85
Discoidin domain-containing receptor 2 (DDR2, Homo sapiens, UniProt Q16832) | cell-free assay | 100
Vascular endothelial growth factor receptor 1 (FLT1, Homo sapiens, UniProt P17948) | cell-free assay | 80
Serine/threonine-protein kinase Nek11 (NEK11, Homo sapiens, UniProt Q8NG66) | binding | 100
Mitogen-activated protein kinase 10 (MAPK10, Homo sapiens, UniProt P53779) | binding | 100
Epidermal growth factor receptor (EGFR, Homo sapiens, UniProt P00533, L858R/T790M) | cell-free assay | 100

Study 2 — concentration: 1 µM
Compound: C=CC(=O)N1CCC([C@@H]2CCNc3c(C(N)=O)c(-c4ccc(Oc5ccccc5)cc4)nn32)CC1
target | effect on | mode | inhibition
Phosphatidylinositol 4,5-bisphosphate 3-kinase catalytic subunit alpha isoform (PIK3CA, Homo sapiens, UniProt P42336, E542K) | enzyme activity | inhibitor | 45%
Serine/threonine-protein kinase Nek5 (NEK5, Homo sapiens, UniProt Q6P3R8) | enzyme activity | inhibitor | 4%
Serine/threonine-protein kinase ICK (CILK1, Homo sapiens, UniProt Q9UPZ9) | enzyme activity | inhibitor | 0%
Peripheral plasma membrane protein CASK (CASK, Homo sapiens, UniProt O14936) | cell-free assay |  | 19%
Macrophage-stimulating protein receptor (MST1R, Homo sapiens, UniProt Q04912) | cell-free assay |  | 8%
Vascular endothelial growth factor receptor 1 (FLT1, Homo sapiens, UniProt P17948) | cell-free assay |  | 28%
Myosin light chain kinase (MYLK3, Homo sapiens, UniProt Q32MK0) | enzyme activity | inhibitor | 0%

Study 3 — mode: degrader; method: HiBiT; cell line: HEK293; concentration: 0.5081 nM
Target: CRBN/Zinc finger protein Helios (Homo sapiens, UniProt Q96SW2+Q9UKS7)
Sequence of UniProt Q96SW2 (whole entry, looked up): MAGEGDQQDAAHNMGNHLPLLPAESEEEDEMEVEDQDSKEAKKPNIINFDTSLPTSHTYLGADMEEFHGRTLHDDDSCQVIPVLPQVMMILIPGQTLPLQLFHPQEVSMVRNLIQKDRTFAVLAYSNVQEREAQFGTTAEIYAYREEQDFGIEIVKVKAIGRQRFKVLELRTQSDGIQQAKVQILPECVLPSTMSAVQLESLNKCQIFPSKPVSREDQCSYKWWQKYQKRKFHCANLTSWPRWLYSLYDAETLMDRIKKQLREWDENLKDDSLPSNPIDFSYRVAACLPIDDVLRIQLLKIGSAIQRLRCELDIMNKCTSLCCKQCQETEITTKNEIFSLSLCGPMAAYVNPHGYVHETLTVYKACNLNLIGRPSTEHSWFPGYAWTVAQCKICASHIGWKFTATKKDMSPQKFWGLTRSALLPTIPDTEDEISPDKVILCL
Sequence of UniProt Q9UKS7 (whole entry, looked up): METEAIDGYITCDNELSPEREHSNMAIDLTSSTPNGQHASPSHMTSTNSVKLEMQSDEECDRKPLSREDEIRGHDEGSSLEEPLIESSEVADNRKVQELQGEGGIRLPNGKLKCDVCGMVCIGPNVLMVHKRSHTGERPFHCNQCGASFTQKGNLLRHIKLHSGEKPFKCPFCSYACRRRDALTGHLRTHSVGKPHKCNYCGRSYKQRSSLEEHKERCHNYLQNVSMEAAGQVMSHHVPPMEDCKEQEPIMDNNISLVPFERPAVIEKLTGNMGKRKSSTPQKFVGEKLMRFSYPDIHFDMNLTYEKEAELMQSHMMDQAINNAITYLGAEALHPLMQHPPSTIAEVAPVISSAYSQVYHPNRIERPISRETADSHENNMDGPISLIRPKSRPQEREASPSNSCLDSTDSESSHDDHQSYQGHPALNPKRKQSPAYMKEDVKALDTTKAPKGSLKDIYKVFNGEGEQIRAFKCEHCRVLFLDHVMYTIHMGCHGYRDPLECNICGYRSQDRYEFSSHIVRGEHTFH
Compound | protein remaining [%]
O=C1CCC(N2Cc3c(ccc4c3OCC43CCC(Oc4ccccc4)CC3)C2=O)C(=O)N1 (stereo not drawn) | 91.6
O=C1CCC(N2Cc3c(ccc4c3OCC43CCC(Cc4ccccc4)CC3)C2=O)C(=O)N1 (stereo not drawn) | 91
O=C1CCC(N2Cc3c(ccc4c3OCCC43CCN(Cc4ccccc4)CC3)C2=O)C(=O)N1 (stereo not drawn) | 99

Study 4 — effect on: enzyme activity; mode: inhibitor; concentration: 0.5 µM; baseline: control
Target: MAP kinase-interacting serine/threonine-protein kinase 1 (MKNK1, Homo sapiens, UniProt Q9BUB5)
Sequence of UniProt Q9BUB5 (whole entry, looked up): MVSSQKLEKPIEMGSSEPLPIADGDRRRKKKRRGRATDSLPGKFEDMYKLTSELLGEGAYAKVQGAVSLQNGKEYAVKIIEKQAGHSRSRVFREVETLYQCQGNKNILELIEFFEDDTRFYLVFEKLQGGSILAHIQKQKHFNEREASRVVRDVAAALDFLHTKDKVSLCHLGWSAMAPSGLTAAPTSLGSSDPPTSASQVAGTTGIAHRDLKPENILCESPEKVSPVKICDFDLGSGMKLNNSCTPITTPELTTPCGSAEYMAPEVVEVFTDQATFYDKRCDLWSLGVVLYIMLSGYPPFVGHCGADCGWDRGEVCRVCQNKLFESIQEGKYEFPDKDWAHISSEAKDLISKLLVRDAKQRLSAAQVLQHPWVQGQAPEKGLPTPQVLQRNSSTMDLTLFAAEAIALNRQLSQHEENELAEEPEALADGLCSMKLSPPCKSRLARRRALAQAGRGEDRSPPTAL
Structure (SMILES) | remaining activity [%]
NC(=O)c1cccc(-c2cc(Nc3ccc(OC(F)(F)F)cc3)ncn2)c1 | 95.9
O=C(O)/C=C/c1cc(Br)c(Br)c(Br)c1Br | 61.1
NC(=O)c1ccc(-c2nc(-c3ccc4c(c3)OCCO4)c(-c3ccccn3)[nH]2)cc1 | 101
CC(C)n1cnc2c(Nc3cccc(Cl)c3)nc(NCCO)nc21 | 98.7
Clc1ccc(Nc2nnc(Cc3ccncc3)c3ccccc23)cc1 | 98.5
N#CC(c1ccnc(NCCc2cccnc2)n1)c1nc2ccccc2s1 (stereo not drawn) | 90.2
CNc1cc2c(Nc3cccc(Br)c3)ncnc2cn1 | 55.2
O=C1c2ccccc2-c2nc3nnnn3nc21 | 79.3
O=C1NC(=O)/C(=C/c2ccc3c(c2)OC(F)(F)O3)S1 | 93.1

Study 5 — cell line: mouse MPNST tumor cells; method: high-content nuclear imaging; measured: cell number; concentration: 10 µM; time: 12 h; notes: mean of 2 replicates; baseline: plate mean; reading: higher = more cells
Compound | nuclei count
NC(CO)C(=O)NNCc1ccc(O)c(O)c1O (stereo not drawn) | 1.56 z-score
CN1CCN2c3ncccc3Cc3ccccc3C2C1 (stereo not drawn) | 0.0448 z-score and 0.474 z-score
O=C(O)c1c(Sc2ccccc2)c2cc(Cl)ccc2n1Cc1ccc(Cl)cc1 | 0.0367 z-score
C[N+]1(CCCCC[N+]2(C)CCCC2)CCCC1 | -0.106 z-score and -0.195 z-score
Nc1c2c(nc3ccccc13)CCCC2 | -0.349 z-score and -0.805 z-score
CC(C)Nc1cc(-c2csc(N(C)C(=O)c3ccc(F)cc3)n2)ncn1 | 4.04 z-score
C[C@@H](CN1CC(=O)NC(=O)C1)N1CC(=O)NC(=O)C1 | 0.000591 z-score

Repeated from above (study 1):
target | effect on | remaining binding [%]
Serine/threonine-protein kinase DCLK2 (DCLK2, Homo sapiens, UniProt Q8N568) | binding | 100
Activin receptor type-2B (ACVR2B, Homo sapiens, UniProt Q13705) | binding | 88
Mitogen-activated protein kinase 7 (MAPK7, Homo sapiens, UniProt Q13164) | binding | 100
Vascular endothelial growth factor receptor 1 (FLT1, Homo sapiens, UniProt P17948) | cell-free assay | 80
Serine/threonine-protein kinase Nek10 (NEK10, Homo sapiens, UniProt Q6ZWH5) | binding | 100
cAMP-dependent protein kinase catalytic subunit PRKX (PRKX, Homo sapiens, UniProt P51817) | cell-free assay | 100
